Results collected from several papers.
Protocols differ between the studies behind these lines. ± gives the spread as reported.
Vif/CBFB/ELOB/ELOC: Vif/CBFB/ELOB/ELOC (HIV-1/Homo sapiens)
niaR K97A: niaR 1-174 K97A (Streptococcus mutans, UniProt Q8DVX8)
B1: E7 (human papillomavirus, UniProt P03129); chain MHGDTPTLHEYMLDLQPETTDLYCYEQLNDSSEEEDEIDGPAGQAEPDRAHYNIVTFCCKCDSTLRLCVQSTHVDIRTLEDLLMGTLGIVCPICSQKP
B2: PPP2R5A E106R (Homo sapiens, UniProt Q15172-1); chain MSSSSPPAGAASAAISASEKVDGFTRKSVRKAQRQKRSQGSSQFRSQGSQAELHPLPQLKDATSNEQQELFCQKLQQCCILFDFMDSVSDLKSKEIKRATLNELVRYVSTNRGVIVESAYSDIVKMISANIFRTLPPSDNPDFDPEEDEPTLEASWPHIQLVYEFFLRFLESPDFQPSIAKRYIDQKFVQQLLELFDSEDPRERDFLKTVLHRIYGKFLGLRAFIRKQINNIFLRFIYETEHFNGVAELLEILGSIINGFALPLKAEHKQFLMKVLIPMHTAKGLALFHAQLAYCVVQFLEKDTTLTEPVIRGLLKFWPKTCSQKEVMFLGEIEEILDVIEPTQFKKIEEPLFKQISKCVSSSHFQVAERALYFWNNEYILSLIEENIDKILPIMFASLYKISKEHWNPTIVALVYNVLKTLMEMNGKLFDDLTSSYKAERQREKKKELEREELWKKLEELKLKKALEKQNSAYNMHSILSNTSAE
B3: PPP2R5A D205R/E251K (Homo sapiens, UniProt Q15172-1); chain MSSSSPPAGAASAAISASEKVDGFTRKSVRKAQRQKRSQGSSQFRSQGSQAELHPLPQLKDATSNEQQELFCQKLQQCCILFDFMDSVSDLKSKEIKRATLNELVEYVSTNRGVIVESAYSDIVKMISANIFRTLPPSDNPDFDPEEDEPTLEASWPHIQLVYEFFLRFLESPDFQPSIAKRYIDQKFVQQLLELFDSEDPRERRFLKTVLHRIYGKFLGLRAFIRKQINNIFLRFIYETEHFNGVAELLKILGSIINGFALPLKAEHKQFLMKVLIPMHTAKGLALFHAQLAYCVVQFLEKDTTLTEPVIRGLLKFWPKTCSQKEVMFLGEIEEILDVIEPTQFKKIEEPLFKQISKCVSSSHFQVAERALYFWNNEYILSLIEENIDKILPIMFASLYKISKEHWNPTIVALVYNVLKTLMEMNGKLFDDLTSSYKAERQREKKKELEREELWKKLEELKLKKALEKQNSAYNMHSILSNTSAE
B4: abpA 1-195 (Streptococcus gordonii, UniProt A8AZZ3); sequence looked up; chain MKKVLLSSVVALTLFAAAAPVFSADEATDAARNNDGAYYLQTQFTNADKVNEYLAQHDGEIRAEAAADPAVVAAKAALDAVEGGSHNYGEVKAAYEAAFNNAFNAVRNKYVQQFQATYNNATEQEGKTYIQGETPEQANARYLKRVGAANNQNPAAEDKGATTPASKEEAKKSEAAAKNAGKAAGKALPKTSAVK
B5: Lqq V toxin, rhodamine on Lys60 (Leiurus quinquestriatus quinquestriatus, UniProt P01481); ends and bridges not checked; also: 125I-labelled, site not given here; rhodamine on Lys60; chain LKDGYIVDDKNCTFFCGRNAYCNDECKKKGGESGYCQWASPYGNACWCYKLPDRVSIKEK(6‑carboxytetramethylrhodamine acetamide)GRCN

B1 (E7) — EC50 (RB1 55-787 del245-267/del582-642, phosphorylated by Cdk2-CycA (UniProt P06400); Rb activation, E2F binding increase, activator, fluorescence polarisation; 20 nM, with: E2F^TMR): 0.01 ± 0.002 µM
B2 (PPP2R5A E106R) — binding (Vif/CBFB/ELOB/ELOC; pull-down): binds
cbpA fragment (Streptococcus pneumoniae) — ΔH (CFH 508-567 D542A (Homo sapiens, UniProt P08603); ITC): -18.4 ± 2.6 kcal/mol
NATNVVIKV — tetramer-reactive CD8+ T cell count (T cell recognition, HLA-B*07:02 tetramer staining; peptide, CD8+ T cells, COVID-19 convalescent human subjects, HLA-B*07:02; dose not given, 5 subjects tested): 0
B3 (PPP2R5A D205R/E251K) — binding (Vif/CBFB/ELOB/ELOC; pull-down): binds
cdiA fragment H178A (Escherichia coli) — mating efficiency (traA (Escherichia coli, UniProt P04737); conjugation; 1 µM; baseline: mock-treated cells, higher = more mating): 2.5 fold
B4 (abpA 1-195) — Kd (AMY1A mature W134A/W203A/Y276A/W284A/W316A/W388A (Homo sapiens, UniProt P0DUB6); SPR; apparent): 14.9 µM
GTCTTTAATAATTAAACTAGTGTCTTGACAGATGTAAACAACAGGTATAAAC (dsDNA) — binding (niaR K97A; EMSA; double-stranded DNA, one strand shown): no binding
APRITFGGP — tetramer-reactive CD8+ T cell count (T cell recognition, HLA-B*07:02 tetramer staining; peptide, CD8+ T cells, COVID-19 convalescent human subjects, HLA-B*07:02; dose not given, 5 subjects tested): 1
pilV 29-end (Neisseria meningitidis) — interaction force (BSG 138-325 (Homo sapiens, UniProt P35613); AFM force spectroscopy; pH 7.0, room temperature, NaCl 150 mM): 49 pN
TTTATAAAAAACCAATATATGTCTTGACACATGTAAAAAACGTTGTATAATG (dsDNA) — binding (niaR K97A; EMSA; double-stranded DNA, one strand shown): no binding
LiaS fragment T120A (Enterococcus faecium) — Kd (LiaR peptide residues 49-57, FITC label (Enterococcus faecium); MST; no ATP, with: FITC peptide 84 nM): > 1000 µM
B5 — dissociation half-time (Scn2a whole channel (Rattus norvegicus, UniProt P04775); fluorescence decrease after washing; peptide, neurons): 65 min
GPC fragment M9C (lymphocytic choriomeningitis virus) — half-life (H2-D1/B2m (Mus musculus); flow cytometry; RMA-S): > 1 h
HSP90 fragment R610A (Plasmodium falciparum) — subunits per oligomer (itself; mass photometry): 2
Dengue virus E protein virion, UV-inactivated (Dengue virus serotype 2) — Kd (PLG kringle 5, 461-544 (Homo sapiens); BLI): 0.0564 µM

For quick reference, copied from above:
B5 — dissociation half-time (Scn2a whole channel (Rattus norvegicus, UniProt P04775); fluorescence decrease after washing; peptide, neurons): 65 min
